Assay results gathered from unrelated publications.
Every numbered part comes from another study and shows a few of its results, in no order.
Chain of UniProt Q12866 (whole entry, looked up): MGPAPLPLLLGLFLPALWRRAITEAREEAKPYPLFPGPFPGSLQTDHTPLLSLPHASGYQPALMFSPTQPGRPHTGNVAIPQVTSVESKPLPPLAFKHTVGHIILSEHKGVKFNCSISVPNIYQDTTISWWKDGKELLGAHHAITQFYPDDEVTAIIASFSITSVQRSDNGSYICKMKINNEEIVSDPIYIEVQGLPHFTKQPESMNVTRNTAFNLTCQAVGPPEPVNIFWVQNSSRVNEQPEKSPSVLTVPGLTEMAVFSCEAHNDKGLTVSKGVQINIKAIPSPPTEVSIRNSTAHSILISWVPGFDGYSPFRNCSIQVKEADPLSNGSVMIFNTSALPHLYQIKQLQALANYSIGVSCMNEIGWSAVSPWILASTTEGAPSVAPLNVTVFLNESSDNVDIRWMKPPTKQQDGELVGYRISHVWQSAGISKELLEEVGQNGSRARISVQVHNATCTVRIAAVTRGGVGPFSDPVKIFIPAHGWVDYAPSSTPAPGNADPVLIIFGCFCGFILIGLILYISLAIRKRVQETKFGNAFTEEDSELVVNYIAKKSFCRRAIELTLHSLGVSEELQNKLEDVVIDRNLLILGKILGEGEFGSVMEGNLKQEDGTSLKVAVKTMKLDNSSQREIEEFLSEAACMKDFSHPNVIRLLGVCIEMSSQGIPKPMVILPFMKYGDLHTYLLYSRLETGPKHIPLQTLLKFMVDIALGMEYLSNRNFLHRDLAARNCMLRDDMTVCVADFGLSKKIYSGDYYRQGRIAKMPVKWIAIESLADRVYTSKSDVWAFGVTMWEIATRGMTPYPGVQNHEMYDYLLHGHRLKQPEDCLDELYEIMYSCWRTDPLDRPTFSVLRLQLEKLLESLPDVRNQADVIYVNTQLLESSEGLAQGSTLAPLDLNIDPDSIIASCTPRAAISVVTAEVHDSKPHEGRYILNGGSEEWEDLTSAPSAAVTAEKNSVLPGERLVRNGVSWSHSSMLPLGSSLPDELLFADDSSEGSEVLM
Chain of UniProt Q8IYT8 (whole entry, looked up): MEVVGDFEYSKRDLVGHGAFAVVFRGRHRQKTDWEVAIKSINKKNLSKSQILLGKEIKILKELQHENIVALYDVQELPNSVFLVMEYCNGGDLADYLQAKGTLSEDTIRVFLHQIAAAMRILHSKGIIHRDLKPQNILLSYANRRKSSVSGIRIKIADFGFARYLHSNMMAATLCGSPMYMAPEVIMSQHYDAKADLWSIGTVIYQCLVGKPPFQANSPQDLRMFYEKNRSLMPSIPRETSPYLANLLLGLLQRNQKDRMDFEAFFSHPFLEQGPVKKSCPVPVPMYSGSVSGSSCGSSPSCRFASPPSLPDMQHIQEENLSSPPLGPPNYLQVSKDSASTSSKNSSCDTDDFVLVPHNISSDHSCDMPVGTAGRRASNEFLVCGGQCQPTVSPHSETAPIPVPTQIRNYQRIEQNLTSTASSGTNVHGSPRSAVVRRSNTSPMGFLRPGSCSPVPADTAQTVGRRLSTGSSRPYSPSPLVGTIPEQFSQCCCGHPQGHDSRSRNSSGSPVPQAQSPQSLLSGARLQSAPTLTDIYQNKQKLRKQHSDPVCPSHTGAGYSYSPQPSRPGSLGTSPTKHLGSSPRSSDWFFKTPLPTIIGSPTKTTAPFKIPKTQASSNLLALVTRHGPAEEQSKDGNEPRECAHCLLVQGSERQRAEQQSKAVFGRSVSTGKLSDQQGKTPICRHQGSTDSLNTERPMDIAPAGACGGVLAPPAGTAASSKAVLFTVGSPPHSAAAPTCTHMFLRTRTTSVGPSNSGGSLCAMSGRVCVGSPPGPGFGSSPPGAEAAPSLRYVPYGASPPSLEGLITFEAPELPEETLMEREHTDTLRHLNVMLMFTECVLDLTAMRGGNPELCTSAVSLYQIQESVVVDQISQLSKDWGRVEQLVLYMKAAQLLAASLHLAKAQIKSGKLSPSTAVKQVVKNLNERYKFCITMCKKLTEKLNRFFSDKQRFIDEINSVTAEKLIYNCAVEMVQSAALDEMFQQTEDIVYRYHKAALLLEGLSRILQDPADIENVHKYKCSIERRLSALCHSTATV
Chain of UniProt Q96PY6 (whole entry, looked up): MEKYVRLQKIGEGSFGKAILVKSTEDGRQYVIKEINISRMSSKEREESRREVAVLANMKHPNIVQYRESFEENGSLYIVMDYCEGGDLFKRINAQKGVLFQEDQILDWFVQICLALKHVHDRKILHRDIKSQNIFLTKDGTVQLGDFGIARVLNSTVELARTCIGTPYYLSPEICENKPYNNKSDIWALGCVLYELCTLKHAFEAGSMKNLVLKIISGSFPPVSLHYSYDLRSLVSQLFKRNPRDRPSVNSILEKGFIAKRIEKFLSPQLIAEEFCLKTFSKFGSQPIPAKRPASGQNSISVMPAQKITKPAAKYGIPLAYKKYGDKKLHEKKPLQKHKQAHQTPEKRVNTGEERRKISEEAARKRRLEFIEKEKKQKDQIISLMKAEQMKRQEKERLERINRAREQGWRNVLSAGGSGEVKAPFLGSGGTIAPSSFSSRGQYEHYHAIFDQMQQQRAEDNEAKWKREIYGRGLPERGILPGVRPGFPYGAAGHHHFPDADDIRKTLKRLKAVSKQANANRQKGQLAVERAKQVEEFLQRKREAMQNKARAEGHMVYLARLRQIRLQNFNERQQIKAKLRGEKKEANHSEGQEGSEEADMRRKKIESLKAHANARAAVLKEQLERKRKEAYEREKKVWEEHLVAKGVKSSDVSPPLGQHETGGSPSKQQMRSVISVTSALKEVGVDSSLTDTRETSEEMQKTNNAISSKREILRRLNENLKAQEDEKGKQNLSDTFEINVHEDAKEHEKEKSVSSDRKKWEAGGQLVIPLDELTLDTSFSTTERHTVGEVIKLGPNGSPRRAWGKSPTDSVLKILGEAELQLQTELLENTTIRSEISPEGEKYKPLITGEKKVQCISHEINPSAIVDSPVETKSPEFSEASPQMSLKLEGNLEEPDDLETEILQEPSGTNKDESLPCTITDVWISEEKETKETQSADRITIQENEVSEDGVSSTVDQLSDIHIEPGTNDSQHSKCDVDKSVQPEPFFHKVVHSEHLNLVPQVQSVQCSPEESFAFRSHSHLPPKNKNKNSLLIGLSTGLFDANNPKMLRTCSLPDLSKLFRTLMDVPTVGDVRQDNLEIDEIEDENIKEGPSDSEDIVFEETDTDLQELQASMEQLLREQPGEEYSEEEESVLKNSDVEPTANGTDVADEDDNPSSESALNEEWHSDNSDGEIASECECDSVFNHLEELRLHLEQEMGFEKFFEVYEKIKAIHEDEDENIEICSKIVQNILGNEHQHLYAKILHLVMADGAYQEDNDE
Chain of UniProt Q9HC98 (whole entry, looked up): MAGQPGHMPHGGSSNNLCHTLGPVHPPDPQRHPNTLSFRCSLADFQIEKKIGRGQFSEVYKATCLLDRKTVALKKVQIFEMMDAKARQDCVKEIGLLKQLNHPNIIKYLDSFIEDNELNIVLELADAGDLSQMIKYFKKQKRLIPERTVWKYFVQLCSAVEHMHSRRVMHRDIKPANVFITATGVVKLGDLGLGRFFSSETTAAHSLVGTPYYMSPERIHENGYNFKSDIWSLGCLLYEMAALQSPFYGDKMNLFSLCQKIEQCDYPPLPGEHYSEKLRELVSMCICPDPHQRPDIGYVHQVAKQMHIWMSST
Chain of UniProt Q9Y6M4 (whole entry, looked up): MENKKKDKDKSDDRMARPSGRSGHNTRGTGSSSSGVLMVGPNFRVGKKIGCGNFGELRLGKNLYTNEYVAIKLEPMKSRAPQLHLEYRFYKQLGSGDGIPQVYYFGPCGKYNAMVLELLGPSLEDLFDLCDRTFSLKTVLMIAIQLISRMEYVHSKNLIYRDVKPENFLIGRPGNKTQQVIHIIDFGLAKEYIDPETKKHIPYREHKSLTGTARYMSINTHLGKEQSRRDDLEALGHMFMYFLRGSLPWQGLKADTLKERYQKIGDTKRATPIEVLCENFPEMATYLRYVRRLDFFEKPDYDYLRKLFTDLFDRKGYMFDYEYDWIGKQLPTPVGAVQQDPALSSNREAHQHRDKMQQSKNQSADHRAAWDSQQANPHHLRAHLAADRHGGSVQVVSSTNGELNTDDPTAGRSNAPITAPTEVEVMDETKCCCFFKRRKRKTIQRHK

Series 1
Target: Hepatocyte nuclear factor 3-alpha (Foxa1, Mus musculus, UniProt P35582, residues 1-468, full length assumed)
Chain of UniProt P35582 (whole entry, looked up): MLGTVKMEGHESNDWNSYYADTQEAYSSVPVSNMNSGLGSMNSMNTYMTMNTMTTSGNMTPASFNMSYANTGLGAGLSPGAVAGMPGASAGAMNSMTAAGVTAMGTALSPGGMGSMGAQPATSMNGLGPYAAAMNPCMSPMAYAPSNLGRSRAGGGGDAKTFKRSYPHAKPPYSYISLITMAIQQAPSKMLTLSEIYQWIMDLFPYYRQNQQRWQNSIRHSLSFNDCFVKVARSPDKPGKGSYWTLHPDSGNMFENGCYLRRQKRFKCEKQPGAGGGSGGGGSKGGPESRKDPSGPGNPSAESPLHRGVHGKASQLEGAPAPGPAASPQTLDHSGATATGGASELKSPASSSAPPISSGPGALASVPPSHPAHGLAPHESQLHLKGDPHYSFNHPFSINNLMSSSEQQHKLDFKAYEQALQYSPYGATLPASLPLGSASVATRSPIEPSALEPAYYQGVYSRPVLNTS
Technique: EMSA with sequencing
Molecule type: double-stranded DNA, one strand shown
Matrix: in vitro
Concentration: 10 and 20 nM
Setting: whole designed probe, mean of two concentrations, ends assumed
Reference: negative control set to 0
Direction: higher = stronger binding
`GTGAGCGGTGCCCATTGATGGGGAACCTTCAGAGGGCAGAACCCTCCCTGGGGACGCACCTGCCTCAGGCGCGGCCTGTGCATTCCTGCCTGGAGACAGGAGCTACCAGTCCCCGGCGCTGTTTACCTTCCGTCTGGCGGCCCAGCAGAGAGCCACCGCCCTCCCCTCTCCTGGCCTATATATAAGGCCTTGTCCTGGCTTTGCCCTGGGCGGGGACGCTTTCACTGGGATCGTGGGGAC`: “normalised bound fraction” 0.126 ratio.
For `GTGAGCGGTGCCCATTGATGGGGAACATCTTCCCCCTCTTCCTTGCCCCACCAGCTCACCTTCCCGGGTTGTTTACTTTGAGCAAAGTAAACAAAGCCGGCATTCGTTAACCCTCTTCTGGCGCAAACTGCACATTGGTCTGGATCTAACATGGTCCTTTGGCGACGCCAGGCTCCGGGAGAGCAAAGCACCGTGTCAGGGCCATGATCCGGGGTGGCCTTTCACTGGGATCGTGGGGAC`, “normalised bound fraction” read 0.518 ratio.
`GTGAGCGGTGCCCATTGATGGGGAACTGCTGGGTAAGACACTTAAGGCCAGCGCTGTGACTGAACCATCTGGTTTAAATGCACTTTCTGGCCCTGGCTTCTCCCTGTCCCTTTCACTTCATGTTTACACAGGCTGGGATGCGATGCTGATGGATCATCATAGATTGGTATCGTTCCTTTCTCAAACTCTTTTTTTTCTTCATTAGAAAAGACAAACTTATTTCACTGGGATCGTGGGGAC`: “normalised bound fraction” 0.38 ratio.
`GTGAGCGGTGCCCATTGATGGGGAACATCTTCCCCCTCTTCCTTGCCCCACCAGCTCACCTTCCCGGGTATATTGGAGATAGGAAATTAATATAAGCCGGCATTCGTTAACCCTCTTCACGCGCATACTGCACATTGGTCTGGATGAATCATGGTCCTTTGGCGACGCCAGGCTCCGGGAGAGCAAAGCACCGTGTCAGGGCCATGATCCGGGGTGGCCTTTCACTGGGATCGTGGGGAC`: “normalised bound fraction” 0.0205 ratio.
Under “normalised bound fraction”, `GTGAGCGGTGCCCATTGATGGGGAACTCATGAAAGGCTTTGCATGCCATTTTAACAAGTACGGGCTTTATCTTAACCCTCTAGGAAACAGGGAGGCACATGAACACCCTAAGTAGGAAAGTAAATAGTTACTTCTAATTTGTGTTTTAGAAAGGTTCTGGAGCAGTCTGGAAGATGTAATGGTTGCTTGTCAGCTCATGAGCTGGTGGGGTTGGCTGCTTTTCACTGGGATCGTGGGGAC` is recorded as 0.21 ratio.

Series 2
Target: Centromere-binding protein 1, full length, His-tagged (CBF1, Saccharomyces cerevisiae, UniProt P17106, residues 1-351)
Chain of UniProt P17106 (whole entry, looked up): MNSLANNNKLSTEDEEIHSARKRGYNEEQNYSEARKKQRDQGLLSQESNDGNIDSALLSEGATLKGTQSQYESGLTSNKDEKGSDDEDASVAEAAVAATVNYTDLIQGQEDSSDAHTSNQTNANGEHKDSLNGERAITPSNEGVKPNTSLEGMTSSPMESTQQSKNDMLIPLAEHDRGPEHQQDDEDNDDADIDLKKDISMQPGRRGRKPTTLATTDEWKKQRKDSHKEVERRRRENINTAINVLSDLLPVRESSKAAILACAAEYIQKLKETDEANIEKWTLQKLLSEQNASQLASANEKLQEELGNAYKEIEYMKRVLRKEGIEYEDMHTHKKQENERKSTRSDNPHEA
Technique: competition protein-binding microarray
Molecule type: double-stranded DNA, one strand shown
Matrix: in vitro
Concentration: 2 µM
Setting: whole 60-bp probe, lowest competitor level
With: Pho4 competitor, 0.05 µM
Direction: higher = stronger binding
`CGGGGTTAAGTTTTTCACGTGCAATGCTTGCAGCAGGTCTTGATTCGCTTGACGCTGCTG` gave a fluorescence intensity of 986 a.u.
For `AAGTTTGCTGAGGACATCGTGACTCGCCGCAAGCTAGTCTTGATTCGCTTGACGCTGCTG`, the fluorescence intensity was 149 a.u.
`CAAGAGTTCGCGGTATACGTGCGGACCTAAACGAGGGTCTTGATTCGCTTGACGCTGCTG` has a fluorescence intensity of 69.1 a.u.
For `CTTTCCCGATCTTGAGGCGTGGGTGTAGCACATTTGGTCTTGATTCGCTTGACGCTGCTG`, the fluorescence intensity was 78.5 a.u.
`GGTTGTAATGTTGTTGATGTGACGGGCCATATTGAAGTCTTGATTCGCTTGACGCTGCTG` has a fluorescence intensity of 80.2 a.u.
With `TGTTTGAGTGGCCAAGACGTGTTGAACTTCAGAAGTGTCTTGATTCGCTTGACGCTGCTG` the fluorescence intensity was 78.6 a.u.
For `TCCTTATGCAGGTATTCTGTGACAGTAAAGTATAGAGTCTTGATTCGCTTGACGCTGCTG`, the fluorescence intensity was 85.3 a.u.
`AAATTACTAAGTTGTCACAATACTTACCCCGTATGAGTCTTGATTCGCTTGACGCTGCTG` has a fluorescence intensity of 96.3 a.u.

Series 3
SMILES: C[C@H](c1ccc(F)cc1)N(Cc1cccc(C(=O)O)c1)C(=O)c1cnc2ccccc2c1
Effect on: cell-free assay
Technique: competition with immobilised ligand
Concentration: 1 µM
The remaining binding was 90% (LTK (Homo sapiens, UniProt P29376)).
Tyrosine-protein kinase ABL1, phosphorylated (ABL1, Homo sapiens, UniProt P00519, Y253F) — remaining binding: 100%.
PDGFRB (Homo sapiens, UniProt P09619) — remaining binding: 100%.
The remaining binding was 100% (DCLK2 (Homo sapiens, UniProt Q8N568)).

Series 4
Compound: CC#CC(=O)Nc1cc2c(Nc3ccc(F)c(Cl)c3)ncnc2cn1
Effect on: enzyme activity
Action: inhibitor
Concentration: 0.5 µM
Reference: control
For FGFR1 (Homo sapiens, UniProt P11362): remaining activity read 91.1%.
It gave 104% for remaining activity (ACVR1B (Homo sapiens, UniProt P36896)).
It gave 104% for remaining activity (MST1R (Homo sapiens, UniProt Q04912)).
ARAF (Homo sapiens, UniProt P10398) — remaining activity: 74.1%.
TBK1 (Homo sapiens, UniProt Q9UHD2) — remaining activity: 105%.
It gave 108% for remaining activity (FGFR3 (Homo sapiens, UniProt P22607)).
NEK6 (Homo sapiens, UniProt Q9HC98) — remaining activity: 97.5%.
It gave 96.7% for remaining activity (ULK2 (Homo sapiens, UniProt Q8IYT8)).
The remaining activity was 105% (NEK1 (Homo sapiens, UniProt Q96PY6)).
The remaining activity was 111% (CSNK1G3 (Homo sapiens, UniProt Q9Y6M4)).
For CSNK1G2 (Homo sapiens, UniProt P78368): remaining activity read 94.9%.
The remaining activity was 84.5% (MERTK (Homo sapiens, UniProt Q12866)).
For MAP3K14 (Homo sapiens, UniProt Q99558): remaining activity read 80.4%.

Repeated from above (series 4):
The remaining activity was 84.5% (MERTK (Homo sapiens, UniProt Q12866)).
The remaining activity was 105% (NEK1 (Homo sapiens, UniProt Q96PY6)).
It gave 108% for remaining activity (FGFR3 (Homo sapiens, UniProt P22607)).
For FGFR1 (Homo sapiens, UniProt P11362): remaining activity read 91.1%.
